Results from different studies.
A part holds a random share of what one study measured. Substitutions count along the parent as printed.

Block 1
Target: RNA binding protein fox-1 homolog 2, RRM domain, GST-SBP tag (RBFOX2, Homo sapiens, UniProt O43251-10, residues 100-194)
Technique: RNA Bind-n-Seq
Form: RNA
Matrix: in vitro
Concentration: 365 nM
Setting: natural RNA segment, single round, ends assumed
Baseline: no-protein control
Reading: higher = stronger binding
Measurement: RBNS enrichment (R)
Residues (chain): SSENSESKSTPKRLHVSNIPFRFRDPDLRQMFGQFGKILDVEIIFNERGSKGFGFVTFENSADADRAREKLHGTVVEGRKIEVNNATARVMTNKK
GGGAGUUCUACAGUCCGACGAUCGUAAACCUGUUUUAGAUAUCAUACUGUUAAUAUUUUAUUGAAAAUUUAUUUCAGAGCGGAGAAACUUAAGCUAAAGUCUGUUAUACAGAAUUGAAAGCCUUCGUAUCUUGUGGAAUUCUCGGGUGCCAA: 0.437
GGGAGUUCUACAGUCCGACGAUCGUCUGGACAGUGGUUCUGGAAUGAAUUCUAUCUAGUAAAUUAGUAAAUGUGCUGUUUUGUAUAAAGCAUGAUAAUUACUUUUUAACAGAAGUUCAUUUUUAAAGAUUACUUGGAAUUCUCGGGUGCCAA: 0.469
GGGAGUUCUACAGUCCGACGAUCACUGUGUCCCGAAGGGGCAGUCAAAGUGCAAUAUUAUUGAAACUUCCCUCCCUACACACCCAGUGCGCUGUGGUUACAGACCGUGGGCUCCCUGAGUUCUGCCGGUGAGCUGGAAUUCUCGGGUGCCAA: 0.401
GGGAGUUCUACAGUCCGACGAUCUUUUUAGUAUUUUAACAUUUAUUUUAAUCCUGAAGACACUUUUUUGAUUGUGUUUCGUAAGAGACAACAUGGCCUCCUAAGGUGCAAUCCUGCCGCUAUAGUGAGCUAAUUGGAAUUCUCGGGUGCCAA: 0.354
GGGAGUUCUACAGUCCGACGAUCUGUAGGCUGCCAGAUGGGGGCUAUGAAUAUGCAGACUGCAGGAAGUGCAAUGGAUAUCUGUGAUGGGCUCUUCCGCCAGAAUGGUGGCUCUGGCUAUGUGCUGAAGCCAGUGGAAUUCUCGGGUGCCAA: 0.799
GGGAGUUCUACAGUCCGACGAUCAUGCUUCUCUUCUAUAUAACCCUCAUCUUCUCAUUUUAUGGGAUUCAACACAAAGUCUACUUAUGCUUCUUUGCAUUAUGGUUAAACAAUUAAAAAAAAAAAAAGGACUCUGGAAUUCUCGGGUGCCAA: 0.596
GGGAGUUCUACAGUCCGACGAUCACAUAAGUUAUUGUUCACAUUAAAGAAUCAUGUUCCCUGUGUACAUUUUAAGCAAAGGAAAAGUCUUGGGAUUGUAUGGGAAUAAAACUUGUUUGAAAAUUUGGAAUAGUUGGAAUUCUCGGGUGCCAA: 0.742
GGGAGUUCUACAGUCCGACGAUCCAGCCGUGACAACACUCCUGUCAUAUUGGAGUCCAAAACUUGAAUUCUGGGUUGAAUUUUUUAAAAAUCAGGUACCACUUGAUUUCAUAUGGGAAAUUGAAGCAGGAAAUUGGAAUUCUCGGGUGCCAA: 0.395
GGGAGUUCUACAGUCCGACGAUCCACUUGUACCAGCUAAGAAUGCUGGAGACUCUGCCACCAUGCUCUGCGUGCCCCUGAACCUCUGUGCAGCCCGGAAGGCUGAUGUACAGGUGUACCUCAAUCCACAUUACUGGAAUUCUCGGGUGCCAA: 0.347
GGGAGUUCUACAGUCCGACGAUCGAUAGAUGGUGUAUUAUUUAUGGAUCAGGCUGCUGCAUACAAACCUUGCAUACUAUUAUGCAGCUUACCUAACUCUCAGACUAUUCUGAGUAAUGCUUGCUUGCUAAUGAUGGAAUUCUCGGGUGCCAA: 1.38
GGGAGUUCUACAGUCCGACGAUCGUUGUUAGGUUUUCGUGUAAGACUCUUGCUGUAUCGUGACAGCUGUGAUUGGUGAGUUGACCGUCCUGGCUGCCAGUUACACUGCGAUUGUAACAACAUUUUUACUUUCUUGGAAUUCUCGGGUGCCAA: 0.313
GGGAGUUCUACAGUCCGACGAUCACAGGAUCUUAUCAGAGGUGGACAACGUGAAGAUUUCCUUUUCCAUUUUCAAUAAACUUUGGAACAACCUUCUCGUAUCUCCCCUAGAGUUUCGUGCCCCUCUGAACUGUUGGAAUUCUCGGGUGCCAA: 0.315

Block 2
Target: CCNB3, cyclin fold, Cln2 fusion (human)
Technique: yeast growth competition, sequencing
Matrix: yeast
Setting: strong parent motif
Baseline: not given
Reading: higher = stronger binding
Measurement: normalised enrichment score
Starting sequence: RBL2 docking peptide (human); STTRRRLFVENDS; partner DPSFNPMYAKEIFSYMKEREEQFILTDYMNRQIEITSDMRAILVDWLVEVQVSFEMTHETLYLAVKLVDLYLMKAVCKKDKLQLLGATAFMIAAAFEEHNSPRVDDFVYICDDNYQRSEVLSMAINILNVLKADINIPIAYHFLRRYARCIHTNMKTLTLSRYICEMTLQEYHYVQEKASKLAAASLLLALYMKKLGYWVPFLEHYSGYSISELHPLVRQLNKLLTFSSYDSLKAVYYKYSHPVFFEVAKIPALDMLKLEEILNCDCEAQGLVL
STTRRRLRVENDS [F8R]: -0.12
STTRRRVFVENDS [L7V]: 0.127
SNTRRRLFVENDS [T2N]: 1.12
STTRRRLFVENDF [S13F]: 1.18
STTRRRIFVENDS [L7I]: 0.546
STTRRRLFVENDL [S13L]: 0.989
STTGRRLFVENDS [R4G]: -0.23
STTRERLFVENDS [R5E]: 0.575
SYTRRRLFVENDS [T2Y]: 0.606
STTRVRLFVENDS [R5V]: 0.073
STMRRRLFVENDS [T3M]: 0.486
STHRRRLFVENDS [T3H]: -0.17
STTRKRLFVENDS [R5K]: 0.506
STTRRSLFVENDS [R6S]: 1.02
STTRRLLFVENDS [R6L]: 0.699
STTRRRLFMENDS [V9M]: 1.06
STTRRRLKVENDS [F8K]: -0.305
STTRRRLFVEYDS [N11Y]: 0.887
STTRRRLFVENMS [D12M]: 0.689
STTRRRMFVENDS [L7M]: 0.055
STTRRRCFVENDS [L7C]: 0.0828
STTRRRLFVEHDS [N11H]: 0.833
STTRRRLFVVNDS [E10V]: 1.02

Block 3
Target: ABI1, truncated, D143A, DHFR fusion (Arabidopsis thaliana)
Technique: DHFR PCA, deep sequencing
Matrix: yeast
Setting: methotrexate growth selection, single substitutions
Added: (+)-ABA 710 µM
Baseline: wild-type fitted maximum
Reading: higher = stronger binding
Measurement: relative binding score
Starting sequence: PYL1, truncated, DHFR fusion (Arabidopsis thaliana); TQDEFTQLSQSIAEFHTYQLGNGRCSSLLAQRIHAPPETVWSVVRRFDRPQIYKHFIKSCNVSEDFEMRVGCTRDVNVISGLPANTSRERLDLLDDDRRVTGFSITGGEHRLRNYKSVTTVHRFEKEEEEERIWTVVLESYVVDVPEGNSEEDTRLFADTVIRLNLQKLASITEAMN; partner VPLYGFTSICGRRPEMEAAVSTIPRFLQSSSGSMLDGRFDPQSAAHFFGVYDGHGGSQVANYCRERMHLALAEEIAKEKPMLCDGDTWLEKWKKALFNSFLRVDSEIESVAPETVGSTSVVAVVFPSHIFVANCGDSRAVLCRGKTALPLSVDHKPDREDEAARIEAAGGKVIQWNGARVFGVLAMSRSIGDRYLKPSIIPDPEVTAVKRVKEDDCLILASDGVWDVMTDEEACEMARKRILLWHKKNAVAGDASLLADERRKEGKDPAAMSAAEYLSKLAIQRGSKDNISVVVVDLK
T120P: 0.357%
A30D: 89.7%
T106L: 107%
V142E: 96.2%
G21K: 97.8%
N22C: 98.4%
E109R: 98.7%
V76R: 13.6%
P50G: 14.7%
E139G: 41%
S171Q: 96.5%
A158R: -3.53%
E14P: 68%
Q51Y: 93.8%

Block 4
Target: Interferon regulatory factor 3, full length, phosphomimetic (IRF3, Homo sapiens, UniProt Q14653, residues 1-427, S386D/S396D/S398D/S402D/T404D/S405D)
Technique: protein-binding microarray
Form: double-stranded DNA, one strand shown
Matrix: in vitro
Concentration: 2540 nM top
Setting: 60-bp whole probe
Added: salmon DNA 0.4 mg/ml
Baseline: random background probes
Reading: higher = stronger binding
Measurement: fitted relative affinity
Shared flanks, not repeated: GCCTAGCAC … GTCTTGATTCGCTTGACGCTGCTG
Residues (chain): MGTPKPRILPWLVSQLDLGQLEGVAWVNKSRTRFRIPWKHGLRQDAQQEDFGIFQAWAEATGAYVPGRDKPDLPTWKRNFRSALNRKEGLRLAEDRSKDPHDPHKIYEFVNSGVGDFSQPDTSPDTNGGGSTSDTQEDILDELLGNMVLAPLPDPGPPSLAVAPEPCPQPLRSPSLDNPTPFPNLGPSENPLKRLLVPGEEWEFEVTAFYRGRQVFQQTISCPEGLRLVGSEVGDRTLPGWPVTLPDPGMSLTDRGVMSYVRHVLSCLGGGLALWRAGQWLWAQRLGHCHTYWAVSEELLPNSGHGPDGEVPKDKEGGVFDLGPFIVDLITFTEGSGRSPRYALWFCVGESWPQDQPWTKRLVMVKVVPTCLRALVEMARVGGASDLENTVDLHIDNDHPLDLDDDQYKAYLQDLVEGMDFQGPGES
GACGGTATCCCTCTCCTGACGTGCTAG: 5.19 z-score
CTGGCCTGGGGTCTGCAGAGGTGCTAG: -1.3 z-score
GACGGTTTCCTTATCCTGACGTGCTAG: 7.57 z-score
GACGAGCTGGGGTATCGAGACGTGCTA: -0.85 z-score
GACGGACTGGGTATCGGTACGTGCTAG: 0.464 z-score
GACAGTCTCGGTATCGGGACGTGCTAG: 2.15 z-score
TTAGATTTCAGTTTGGATTAGTGCTAG: 2.01 z-score
TCAGGTATCGGTCTCGGTTAGTGCTAG: 4.39 z-score
TTAGGTATCCGGACTGGGTTAGTGCTA: 2.1 z-score
GTGTTACTAAAATTTCATGAAGTGCTA: 0.173 z-score
TTACGTATCGGTTTCGGTTAGTGCTAG: 8.14 z-score
TCAGGTTTCACTTTCCAACTGTGCTAG: 8.1 z-score
AGGAAAGTGTTTCTCAACCAGTGCTAG: 0.773 z-score
GACGGTTTTGACTATCGGGACGTGCTA: 0.7 z-score
GACGATATCAGTTTCGAGATGTGCTAG: 3.59 z-score
GACGAACAGAGACTGGAGACGTGCTAG: -0.172 z-score
TACGGTCTCGGTCTCGGGACGTGCTAG: 1.08 z-score
GGGTCTCTGGGTCGGGCAGGGTGCTAG: -0.795 z-score
TCAGCTTCCTCTTTACTACTGTGCTAG: 1.38 z-score
TTAGGACTGGGCTATCGGTTAGTGCTA: -0.931 z-score
GCCGGTATCGGGTTTCGGGACGTGCTA: 3.25 z-score
GACGGATTGCTACTGCTGACGTGCTAG: -0.28 z-score
TCATCTTTCCAACTCTGACTGTGCTAG: 2.97 z-score
TTAGGTCTCCTTATCCTTTTGTGCTAG: 3.22 z-score
TCAGTTTCCTCTTTCTTACTGTGCTAG: 6.9 z-score

Block 5
Target: CEBPA, bZIP domain (human)
Technique: DHFR protein complementation
Matrix: yeast
Setting: single substitutions, most at no-binding floor
Baseline: wild-type JUN-FOS pair
Reading: higher = stronger binding
Measurement: binding fitness
Starting sequence: JUN, bZIP domain (human); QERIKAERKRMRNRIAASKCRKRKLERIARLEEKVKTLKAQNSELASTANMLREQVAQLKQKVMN; partner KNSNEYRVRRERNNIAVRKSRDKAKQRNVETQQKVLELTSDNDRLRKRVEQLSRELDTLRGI
A40G: -1.41 natural log
S43E: -1.36 natural log
A40L: -1.5 natural log
L31E: -1.44 natural log
Q41R: -1.44 natural log
V35G: -1.5 natural log
L38A: -1.51 natural log
K34D: -1.52 natural log
L31C: -1.46 natural log
L38D: -1.52 natural log
V35E: -1.51 natural log
R53V: -1.43 natural log
K34T: -1.36 natural log
V35T: -1.41 natural log
E32R: -1.38 natural log
N42M: -1.53 natural log
R53Q: -1.33 natural log
R30G: -1.36 natural log
A40N: -1.52 natural log
L45S: -1.42 natural log
A49N: -1.35 natural log

Some of these lines once more (block 4):
TACGGTCTCGGTCTCGGGACGTGCTAG: 1.08 z-score
GGGTCTCTGGGTCGGGCAGGGTGCTAG: -0.795 z-score
TCAGCTTCCTCTTTACTACTGTGCTAG: 1.38 z-score
TTAGGACTGGGCTATCGGTTAGTGCTA: -0.931 z-score
GCCGGTATCGGGTTTCGGGACGTGCTA: 3.25 z-score
